Measurements from different studies.
Each line is one published result; not all experiments were run side by side. ± marks the error that the study gave.
T1: IKBKG 44-113 C95A/C76S/E110V/R106E/E78R/R75V/L55R/T50E; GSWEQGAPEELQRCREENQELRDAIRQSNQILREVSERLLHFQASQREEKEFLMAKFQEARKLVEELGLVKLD
B1: PRPS1 (human); sequence looked up; chain PNIKIFSGSSHQDLSQKIADRLGLELGKVVTKKFSNQETCVEIGESVRGEDVYIVQSGCGEINDNLMELLIMINACKIASASRVTAVIPCFPYARQDKKDKSRAPISAKLVANMLSVAGADHIITMDLHASQIQGFFDIPVDNLYAEPAVLKWIRENISEWRNCTIVSPDAGGAKRVTSIADRLNVDFALIHKERKKANEVDRMVLVGDVKDRVAILVDDMADTCGTICHAADKLLSAGATRVYAILTHGIFSGPAISRINNACFEAVVVTNTIPQEDKMKHCSKIQVIDISMILAEAIRRTHNGESVSYLFSHVPL
B2: CDC48A 1-190 (Arabidopsis thaliana, UniProt P54609); chain MSTPAESSDSKSKKDFSTAILERKKSPNRLVVDEAINDDNSVVSLHPATMEKLQLFRGDTILIKGKKRKDTVCIALADETCEEPKIRMNKVVRSNLRVRLGDVISVHQCPDVKYGKRVHILPVDDTVEGVTGNLFDAYLKPYFLEAYRPVRKGDLFLVRGGMRSVEFKVIETDPAEYCVVAPDTEIFCEG
B3: SRS2 1107-1174 I1152A/L1156A (Saccharomyces cerevisiae, UniProt P12954); N-terminal cysteine BODIPY-FL; chain CHNPDDTTVDNRPIISNAKFLADAAMKKTQKFSKKVKNEPASSQMDAFSQASRAKKKSKLNNGEIIVID
B4: Pigr 19-135 (Mus musculus, UniProt O70570); chain KSPIFGPQEVSSIEGDSVSITCYYPDTSVNRHTRKYWCRQGASGMCTTLISSNGYLSKEYSGRANLINFPENNTFVINIEQLTQDDTGSYKCGLGTSNRGLSFDVSLEVSQVPELPS
B5: RSPO4/IgG1 Fc RSPO4 32-137 Q65R/N297Q; CPT2 conjugated via azide click; chain GGNCTGCIICSEENGCSTCQQRLFLFIRREGIRRYGKCLHDCPPGYFGIRGQEVNRCKKCGATCESCFSQDFCIRCKRQFYLYKGKCLPTCPPGTLAHQNTRECQGGGGGSGGGGSGGGGS
B6: Bcl2l11 (Mus musculus, UniProt O54918-2); chain MAKQPSDVSSECDREGGQLQPAERPPQLRPGAPTSLQTEPQDRSPAPMSCDKSTQTPSPPCQAFNHYLSAMASIRQSQEEPEDLRPEIRIAQELRRIGDEFNETYTRRVFANDYREAEDHPQMVILQLLRFIFRLVWRRH
B7: ADRM1 265-388 (Homo sapiens, UniProt Q16186); chain SDLQSILATMNVPAGPAGGQQVDLASVLTPEIMAPILANADVQERLLPYLPSGESLPQTADEIQNTLTSPQFQQALGMFSAALASGQLGPLMCQFGLPAEAVEAANKGDVEAFAKAMQNNAKPE
B8: TNFSF4 51-183 (Homo sapiens, UniProt P23510); sequence looked up; chain QVSHRYPRIQSIKVQFTEYKKEKGFILTSQKEDEIMKVQNNSVIINCDGFYLISLKGYFSQEVNISLHYQKDEEPLFQLKKVRSVNSLMVASLTYKDKVYLNVTTDNTSLDDFHVNGGELILIHQNPGEFCVL
B9: IL18 37-193 C74S/C104S/C112S/A162C/C163S/I185C (Homo sapiens, UniProt Q14116); chain YFGKLESKLSVIRNLNDQVLFIDQGNRPLFEDMTDSDSRDNAPRTIFIISMYKDSQPRGMAVTISVKSEKISTLSSENKIISFKEMNPPDNIKDTKSDIIFFQRSVPGHDNKMQFESSSYEGYFLCSEKERDLFKLILKKEDELGDRSCMFTVQNED
Chain of UniProt P50052 (whole entry, looked up): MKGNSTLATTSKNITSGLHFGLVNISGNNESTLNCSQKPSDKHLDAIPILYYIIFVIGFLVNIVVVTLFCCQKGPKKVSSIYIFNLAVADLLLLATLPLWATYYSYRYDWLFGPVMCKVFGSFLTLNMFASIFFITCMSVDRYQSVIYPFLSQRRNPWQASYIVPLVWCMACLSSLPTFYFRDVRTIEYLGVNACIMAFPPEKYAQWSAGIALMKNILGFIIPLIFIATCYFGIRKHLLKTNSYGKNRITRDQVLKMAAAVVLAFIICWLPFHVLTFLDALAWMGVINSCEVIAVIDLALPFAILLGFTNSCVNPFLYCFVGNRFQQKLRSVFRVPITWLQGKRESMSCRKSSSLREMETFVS
Chain of UniProt Q07820 (whole entry, looked up): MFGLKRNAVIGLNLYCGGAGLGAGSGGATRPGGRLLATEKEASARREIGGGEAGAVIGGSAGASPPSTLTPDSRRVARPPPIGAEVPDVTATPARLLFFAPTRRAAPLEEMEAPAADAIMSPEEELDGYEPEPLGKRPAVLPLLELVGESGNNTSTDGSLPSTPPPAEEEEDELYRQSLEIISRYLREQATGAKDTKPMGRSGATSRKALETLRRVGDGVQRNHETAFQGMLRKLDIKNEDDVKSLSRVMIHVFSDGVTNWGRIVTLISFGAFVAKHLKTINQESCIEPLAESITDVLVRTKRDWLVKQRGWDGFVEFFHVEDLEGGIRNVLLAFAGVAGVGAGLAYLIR
Chain of UniProt O14879 (whole entry, looked up): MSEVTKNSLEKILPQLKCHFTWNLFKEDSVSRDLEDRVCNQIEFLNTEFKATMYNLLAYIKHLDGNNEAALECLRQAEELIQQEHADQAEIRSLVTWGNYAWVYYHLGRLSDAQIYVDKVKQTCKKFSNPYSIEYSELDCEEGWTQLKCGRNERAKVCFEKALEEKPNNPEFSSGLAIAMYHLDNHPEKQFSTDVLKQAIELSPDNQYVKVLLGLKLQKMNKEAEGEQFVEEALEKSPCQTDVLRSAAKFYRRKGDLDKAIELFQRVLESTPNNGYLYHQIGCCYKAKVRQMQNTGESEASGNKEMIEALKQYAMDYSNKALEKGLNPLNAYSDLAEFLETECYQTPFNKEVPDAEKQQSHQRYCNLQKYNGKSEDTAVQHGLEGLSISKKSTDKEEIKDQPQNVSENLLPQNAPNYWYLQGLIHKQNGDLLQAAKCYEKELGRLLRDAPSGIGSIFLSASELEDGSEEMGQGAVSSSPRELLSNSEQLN
Chain of UniProt P08069 (whole entry, looked up): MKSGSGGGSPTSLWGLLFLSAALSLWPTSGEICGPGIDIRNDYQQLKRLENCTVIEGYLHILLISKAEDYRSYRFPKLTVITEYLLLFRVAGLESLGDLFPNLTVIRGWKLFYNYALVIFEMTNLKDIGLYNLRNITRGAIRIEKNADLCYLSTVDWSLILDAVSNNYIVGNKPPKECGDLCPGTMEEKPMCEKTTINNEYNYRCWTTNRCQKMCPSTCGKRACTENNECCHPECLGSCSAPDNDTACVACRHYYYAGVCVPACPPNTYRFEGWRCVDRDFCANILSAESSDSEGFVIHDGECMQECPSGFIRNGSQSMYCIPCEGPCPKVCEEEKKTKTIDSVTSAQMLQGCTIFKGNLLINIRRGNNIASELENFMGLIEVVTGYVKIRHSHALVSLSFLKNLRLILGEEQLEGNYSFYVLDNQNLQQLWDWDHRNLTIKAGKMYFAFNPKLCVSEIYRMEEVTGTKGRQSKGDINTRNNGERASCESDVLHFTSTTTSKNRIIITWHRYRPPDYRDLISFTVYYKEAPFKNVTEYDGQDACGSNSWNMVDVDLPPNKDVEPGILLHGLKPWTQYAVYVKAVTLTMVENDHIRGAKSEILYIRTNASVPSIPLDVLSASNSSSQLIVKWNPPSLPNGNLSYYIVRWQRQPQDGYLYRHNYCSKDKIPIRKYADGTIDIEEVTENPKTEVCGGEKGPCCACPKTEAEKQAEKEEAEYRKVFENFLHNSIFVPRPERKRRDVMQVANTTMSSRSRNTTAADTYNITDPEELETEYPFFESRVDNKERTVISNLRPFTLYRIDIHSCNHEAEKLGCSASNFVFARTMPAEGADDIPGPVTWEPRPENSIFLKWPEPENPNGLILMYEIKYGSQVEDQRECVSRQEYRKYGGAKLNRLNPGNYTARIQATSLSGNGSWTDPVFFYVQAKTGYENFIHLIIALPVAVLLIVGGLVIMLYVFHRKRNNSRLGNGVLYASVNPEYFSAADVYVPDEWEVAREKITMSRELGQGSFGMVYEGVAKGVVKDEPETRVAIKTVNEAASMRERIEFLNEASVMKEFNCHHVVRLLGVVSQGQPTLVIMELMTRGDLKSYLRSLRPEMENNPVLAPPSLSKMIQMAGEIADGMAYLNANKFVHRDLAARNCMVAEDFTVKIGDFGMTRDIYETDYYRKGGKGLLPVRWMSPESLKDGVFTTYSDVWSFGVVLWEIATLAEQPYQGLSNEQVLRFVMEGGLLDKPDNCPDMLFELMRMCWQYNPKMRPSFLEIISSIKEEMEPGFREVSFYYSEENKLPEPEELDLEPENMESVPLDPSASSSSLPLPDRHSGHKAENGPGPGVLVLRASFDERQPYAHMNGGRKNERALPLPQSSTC
Chain of UniProt Q71LX4 (whole entry, looked up): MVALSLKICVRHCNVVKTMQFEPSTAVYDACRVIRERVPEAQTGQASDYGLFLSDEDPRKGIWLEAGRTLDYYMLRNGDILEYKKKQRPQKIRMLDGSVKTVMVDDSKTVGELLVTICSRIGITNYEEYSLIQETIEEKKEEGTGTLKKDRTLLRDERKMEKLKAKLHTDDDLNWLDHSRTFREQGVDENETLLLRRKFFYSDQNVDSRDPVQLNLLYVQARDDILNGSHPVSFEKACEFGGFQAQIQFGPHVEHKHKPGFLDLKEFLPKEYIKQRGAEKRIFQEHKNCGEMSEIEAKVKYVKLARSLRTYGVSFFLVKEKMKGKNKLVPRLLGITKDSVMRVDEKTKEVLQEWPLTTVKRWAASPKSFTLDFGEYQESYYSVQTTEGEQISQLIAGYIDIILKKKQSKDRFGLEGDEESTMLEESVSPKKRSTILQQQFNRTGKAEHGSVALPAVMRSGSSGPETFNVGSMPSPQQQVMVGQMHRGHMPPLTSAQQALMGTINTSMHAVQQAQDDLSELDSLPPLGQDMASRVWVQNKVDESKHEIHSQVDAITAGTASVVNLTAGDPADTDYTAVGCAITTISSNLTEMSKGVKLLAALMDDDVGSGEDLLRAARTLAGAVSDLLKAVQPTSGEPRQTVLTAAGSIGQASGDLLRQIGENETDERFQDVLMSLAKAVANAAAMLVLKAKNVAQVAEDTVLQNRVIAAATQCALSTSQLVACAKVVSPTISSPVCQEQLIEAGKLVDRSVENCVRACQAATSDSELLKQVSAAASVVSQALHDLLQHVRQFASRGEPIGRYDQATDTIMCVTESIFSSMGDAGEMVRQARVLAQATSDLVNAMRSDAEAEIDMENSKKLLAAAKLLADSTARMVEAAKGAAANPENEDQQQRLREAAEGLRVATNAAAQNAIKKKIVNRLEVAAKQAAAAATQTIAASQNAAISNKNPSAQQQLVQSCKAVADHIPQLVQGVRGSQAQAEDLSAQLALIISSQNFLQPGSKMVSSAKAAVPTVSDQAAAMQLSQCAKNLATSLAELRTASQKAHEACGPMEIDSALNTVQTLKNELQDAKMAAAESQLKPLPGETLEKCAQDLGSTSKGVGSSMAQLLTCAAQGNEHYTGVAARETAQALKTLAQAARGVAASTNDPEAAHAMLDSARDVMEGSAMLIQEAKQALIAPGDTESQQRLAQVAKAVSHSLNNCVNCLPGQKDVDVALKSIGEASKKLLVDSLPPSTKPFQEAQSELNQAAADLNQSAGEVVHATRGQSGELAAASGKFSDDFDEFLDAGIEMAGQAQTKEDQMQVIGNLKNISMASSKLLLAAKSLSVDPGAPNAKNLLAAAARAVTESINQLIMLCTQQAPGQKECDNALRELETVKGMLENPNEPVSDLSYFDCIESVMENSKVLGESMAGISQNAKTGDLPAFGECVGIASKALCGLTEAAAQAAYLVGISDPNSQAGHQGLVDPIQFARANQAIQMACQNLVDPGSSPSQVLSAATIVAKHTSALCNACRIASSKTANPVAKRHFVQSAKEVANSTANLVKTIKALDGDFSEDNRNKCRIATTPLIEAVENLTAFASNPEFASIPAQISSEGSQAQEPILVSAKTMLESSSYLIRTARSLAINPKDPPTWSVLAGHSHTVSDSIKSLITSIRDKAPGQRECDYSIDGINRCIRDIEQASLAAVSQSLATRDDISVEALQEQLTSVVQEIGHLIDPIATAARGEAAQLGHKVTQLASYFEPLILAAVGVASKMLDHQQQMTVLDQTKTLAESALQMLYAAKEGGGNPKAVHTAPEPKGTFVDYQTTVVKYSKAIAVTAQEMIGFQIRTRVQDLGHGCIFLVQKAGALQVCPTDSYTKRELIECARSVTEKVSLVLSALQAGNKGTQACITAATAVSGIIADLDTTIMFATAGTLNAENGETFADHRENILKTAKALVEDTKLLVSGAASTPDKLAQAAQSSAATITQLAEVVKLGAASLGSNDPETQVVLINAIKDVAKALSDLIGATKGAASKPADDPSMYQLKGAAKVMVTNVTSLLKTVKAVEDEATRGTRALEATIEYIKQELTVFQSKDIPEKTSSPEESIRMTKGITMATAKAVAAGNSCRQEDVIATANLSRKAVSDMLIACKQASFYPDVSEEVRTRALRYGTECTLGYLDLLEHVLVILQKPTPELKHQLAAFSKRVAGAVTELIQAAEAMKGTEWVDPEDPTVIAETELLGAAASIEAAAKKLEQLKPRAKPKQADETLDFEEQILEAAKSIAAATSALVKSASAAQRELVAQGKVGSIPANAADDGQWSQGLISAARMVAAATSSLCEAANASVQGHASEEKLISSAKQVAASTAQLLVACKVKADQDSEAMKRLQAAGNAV

| Substance | target or system | assay | test system | conditions | how to read | endpoint | value |
| --- | --- | --- | --- | --- | --- | --- | --- |
| B1 (PRPS1) | PP6C (human) | co-immunoprecipitation, IP-MS | CYB5R4 knockout cells | concentration not given | relative to: CYB5R4 knockout over parental | log2 fold change | -2.66 |
| Notch ankyrin domain T83A/R107A (Drosophila) | dx (Drosophila melanogaster, UniProt Q23985) | AUC | – | – | – | Kd | 17600 nM |
| B2 (CDC48A 1-190) | PUX9 (Arabidopsis thaliana, UniProt Q4V3D3) | BLI | – | 25 °C | – | Kd | 5.8 ± 0.1 nM |
| MERDEYQLPNSHGKNTFLSRIFGLQSDEVNPSLNSQEMSNFPLPDIER (ATG9 1-48 (Saccharomyces cerevisiae, UniProt Q12142); sequence looked up) | Atg23 full-length, dimer (yeast, UniProt Q06671) | BLI | – | – | – | Kd | 1190 nM |
| GRIN2A fragment S1459E (sequence not shown) | SNX27 fragment (Rattus norvegicus) | ITC | – | – | – | Kd | 25000 nM |
| GSS fragment, C-terminal cyclic imide (Homo sapiens) | CRBN/DDB1 | FRET or BRET | – | – | – | Kd | 6.86 nM |
| B3 (SRS2 1107-1174 I1152A/L1156A) | POL30 1-258 K127G (Saccharomyces cerevisiae, UniProt P15873) | fluorescence polarisation | – | apparent | – | Kd | 18500 nM |
| KDR (Homo sapiens, UniProt P35968) | ramucirumab IgG, PBS-stressed 14 d, Fc heavy chain Asn deamidation | SPR | – | – | – | Kd | 0.25 nM |
| CACNA1C fragment S1700D (Rattus norvegicus) | CACNA1C IQ motif 1644-1668, fluorescein label (UniProt P15381) | fluorescence polarisation | – | – | – | Kd | 3000 ± 1000 nM |
| INS A and B chains (Homo sapiens) | IGF1R (Homo sapiens, UniProt P08069) | competition binding | – | together with: tracer | – | Kd | 293 nM |
| B4 (Pigr 19-135) | Igha/Jchain CH2-CH3 with J chain Y135A/P136A/D137A (Mus musculus) | SPR | – | – | – | Kd | > 2000 nM |
| B5 | LGR4 (Homo sapiens, UniProt Q9BXB1) | whole-cell binding saturation | Fc fusion, HEK293T | – | – | Kd | 2.4 nM |
| IFIT1 (Homo sapiens, UniProt P09914) | IFIT3 (UniProt O14879) | MST | – | – | – | Kd | 43.3 ± 9.6 nM |
| angiotensin 1-9 fragment | AGTR2 (Homo sapiens, UniProt P50052) | SPR | – | – | – | Kd | 5950 nM |
| YIKTPLGTFPNRHGC (engineered peptide) | VPS35/VPS26A/VPS29 retromer complex (Homo sapiens) | SPR | peptide | – | – | Kd | 1.4 nM |
| B6 (Bcl2l11) | MCL1 (Homo sapiens, UniProt Q07820) | FRET or BRET | – | not purified | – | Kd | 2000 nM |
| Homer EVH1 domain (Capsaspora owczarzaki) | DBN1 peptide (Homo sapiens) | BLI | – | – | – | Kd | > 150000 nM |
| B7 (ADRM1 265-388) | UCHL5 E283A (Homo sapiens) | ITC | – | – | – | Kd | 5.1 nM |
| KLLMIIHDRREFAKFEKEKMNAKWDTGENPIYKSAINNFKNPNYGRKAGL (ITGB1 752-801 Q778G/P786A (Homo sapiens, UniProt P05556-5); sequence looked up) | Tln2 312-408 (Mus musculus, UniProt Q71LX4) | NMR titration | – | – | – | Kd | 369000 nM |
| PARRSEELVAEAHNLCTLLENAIQDTVREQDQSFTALDWSWLQTE (IKBKB 701-745 K703R/K704R (UniProt O14920); N-terminal FITC; sequence looked up) | T1, IKBKG 44-113 C95A/C76S/E110V/R106E/E78R/R75V/L55R/T50E | fluorescence polarisation | peptide | – | – | Kd | 272 nM |
| FKESALAKQSLYLAFDPLLRDS (TACC3 549-570 R555A/K562A (Homo sapiens, UniProt Q9Y6A5); FAM label, pS558; sequence looked up) | CLTC 358-574 (Homo sapiens, UniProt Q00610) | fluorescence polarisation | peptide | – | – | Kd | 26000 nM |
| B8 (TNFSF4 51-183) | TNFRSF4 29-170 V53A (Homo sapiens, UniProt P43489) | SPR | – | – | – | Kd | 1800 nM |
| B9 | IL18BP (Homo sapiens, UniProt O95998) | SPR | – | – | – | Kd | 0.0065 nM |
| RGSVITSA (Zbtb16 residues 285-292 (Mus musculus)) | IRF2BP2 fragment (Homo sapiens) | ITC | peptide | – | – | Kd | 12400 nM |
| human RNA helicase A | PP6C (human) | co-immunoprecipitation, IP-MS | CYB5R4 knockout cells | concentration not given | relative to: CYB5R4 knockout over parental | log2 fold change | -0.86 |

A few entries again:
| Substance | target or system | assay | test system | conditions | how to read | endpoint | value |
| --- | --- | --- | --- | --- | --- | --- | --- |
| KDR (Homo sapiens, UniProt P35968) | ramucirumab IgG, PBS-stressed 14 d, Fc heavy chain Asn deamidation | SPR | – | – | – | Kd | 0.25 nM |
| CACNA1C fragment S1700D (Rattus norvegicus) | CACNA1C IQ motif 1644-1668, fluorescein label (UniProt P15381) | fluorescence polarisation | – | – | – | Kd | 3000 ± 1000 nM |
| GSS fragment, C-terminal cyclic imide (Homo sapiens) | CRBN/DDB1 | FRET or BRET | – | – | – | Kd | 6.86 nM |
| B9 | IL18BP (Homo sapiens, UniProt O95998) | SPR | – | – | – | Kd | 0.0065 nM |
